# Measured values from different studies.
# Numbered parts are unrelated; each lists some results of a single study. “And” joins repeats or separate records; there may be more than shown.
# UniProt Q15759, sequence (whole entry, looked up): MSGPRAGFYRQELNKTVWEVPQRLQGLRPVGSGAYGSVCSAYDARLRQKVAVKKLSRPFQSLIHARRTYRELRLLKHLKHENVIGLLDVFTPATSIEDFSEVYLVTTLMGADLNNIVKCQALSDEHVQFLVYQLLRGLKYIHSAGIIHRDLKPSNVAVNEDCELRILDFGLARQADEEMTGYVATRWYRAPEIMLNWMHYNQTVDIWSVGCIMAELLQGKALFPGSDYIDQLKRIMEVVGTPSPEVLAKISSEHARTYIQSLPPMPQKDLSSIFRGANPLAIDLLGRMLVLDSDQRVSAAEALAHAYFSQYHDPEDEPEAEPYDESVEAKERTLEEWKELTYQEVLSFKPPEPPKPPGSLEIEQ
# UniProt P42336, sequence (whole entry, unmodified, looked up): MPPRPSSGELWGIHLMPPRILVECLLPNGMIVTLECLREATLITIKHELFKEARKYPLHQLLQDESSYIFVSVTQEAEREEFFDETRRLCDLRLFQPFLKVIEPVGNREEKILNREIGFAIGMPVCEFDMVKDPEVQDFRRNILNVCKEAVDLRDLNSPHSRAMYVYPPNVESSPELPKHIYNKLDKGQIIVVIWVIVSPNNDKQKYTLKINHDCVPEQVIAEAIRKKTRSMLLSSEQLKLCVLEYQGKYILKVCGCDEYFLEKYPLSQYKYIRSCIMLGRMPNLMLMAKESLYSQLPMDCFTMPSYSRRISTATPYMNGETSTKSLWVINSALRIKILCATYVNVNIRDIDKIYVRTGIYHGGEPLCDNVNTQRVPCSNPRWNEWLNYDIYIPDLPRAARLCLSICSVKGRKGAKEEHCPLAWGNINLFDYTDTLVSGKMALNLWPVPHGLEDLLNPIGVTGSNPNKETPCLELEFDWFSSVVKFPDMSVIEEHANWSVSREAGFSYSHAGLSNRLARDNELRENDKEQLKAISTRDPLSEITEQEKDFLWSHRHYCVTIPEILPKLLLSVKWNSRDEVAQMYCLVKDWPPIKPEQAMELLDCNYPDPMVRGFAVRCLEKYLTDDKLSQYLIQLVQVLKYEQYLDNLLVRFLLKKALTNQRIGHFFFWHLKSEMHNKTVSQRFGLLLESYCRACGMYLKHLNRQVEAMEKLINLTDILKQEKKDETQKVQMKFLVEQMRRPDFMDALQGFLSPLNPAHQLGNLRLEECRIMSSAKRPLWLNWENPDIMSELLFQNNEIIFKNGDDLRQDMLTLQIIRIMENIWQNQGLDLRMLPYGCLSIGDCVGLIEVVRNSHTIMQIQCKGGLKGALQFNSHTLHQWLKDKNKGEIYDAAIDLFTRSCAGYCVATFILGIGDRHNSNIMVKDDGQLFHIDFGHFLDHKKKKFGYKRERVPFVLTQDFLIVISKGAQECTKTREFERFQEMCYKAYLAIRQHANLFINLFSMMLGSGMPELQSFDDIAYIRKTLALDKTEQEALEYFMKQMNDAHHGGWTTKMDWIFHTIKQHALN
# UniProt Q16566, sequence (whole entry, looked up): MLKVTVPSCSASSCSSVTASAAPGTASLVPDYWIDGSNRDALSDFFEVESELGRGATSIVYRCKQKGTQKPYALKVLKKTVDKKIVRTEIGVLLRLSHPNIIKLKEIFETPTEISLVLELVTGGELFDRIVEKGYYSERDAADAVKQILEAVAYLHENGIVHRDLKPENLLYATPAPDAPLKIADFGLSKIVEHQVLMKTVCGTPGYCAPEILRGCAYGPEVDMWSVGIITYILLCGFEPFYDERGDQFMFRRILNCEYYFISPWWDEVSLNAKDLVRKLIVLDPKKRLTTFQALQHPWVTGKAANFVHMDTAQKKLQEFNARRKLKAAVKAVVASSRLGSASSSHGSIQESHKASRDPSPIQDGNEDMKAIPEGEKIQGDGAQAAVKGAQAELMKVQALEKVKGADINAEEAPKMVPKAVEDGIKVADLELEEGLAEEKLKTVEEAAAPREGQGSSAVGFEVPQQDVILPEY
# UniProt P51956, sequence (whole entry, looked up): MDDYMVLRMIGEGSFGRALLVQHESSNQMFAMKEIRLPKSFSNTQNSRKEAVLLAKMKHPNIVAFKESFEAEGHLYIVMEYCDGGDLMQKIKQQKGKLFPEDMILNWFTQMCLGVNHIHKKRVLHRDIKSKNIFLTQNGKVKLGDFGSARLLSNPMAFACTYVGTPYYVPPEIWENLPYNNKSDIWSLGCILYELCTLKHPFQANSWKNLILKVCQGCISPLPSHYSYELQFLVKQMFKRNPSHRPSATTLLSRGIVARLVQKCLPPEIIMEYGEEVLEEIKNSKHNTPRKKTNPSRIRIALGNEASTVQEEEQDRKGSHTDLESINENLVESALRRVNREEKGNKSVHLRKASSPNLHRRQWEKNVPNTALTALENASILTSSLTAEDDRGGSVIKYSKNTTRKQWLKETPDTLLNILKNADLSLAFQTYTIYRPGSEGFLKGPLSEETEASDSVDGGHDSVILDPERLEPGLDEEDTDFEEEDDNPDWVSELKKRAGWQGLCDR
# UniProt O75914, sequence (whole entry, looked up): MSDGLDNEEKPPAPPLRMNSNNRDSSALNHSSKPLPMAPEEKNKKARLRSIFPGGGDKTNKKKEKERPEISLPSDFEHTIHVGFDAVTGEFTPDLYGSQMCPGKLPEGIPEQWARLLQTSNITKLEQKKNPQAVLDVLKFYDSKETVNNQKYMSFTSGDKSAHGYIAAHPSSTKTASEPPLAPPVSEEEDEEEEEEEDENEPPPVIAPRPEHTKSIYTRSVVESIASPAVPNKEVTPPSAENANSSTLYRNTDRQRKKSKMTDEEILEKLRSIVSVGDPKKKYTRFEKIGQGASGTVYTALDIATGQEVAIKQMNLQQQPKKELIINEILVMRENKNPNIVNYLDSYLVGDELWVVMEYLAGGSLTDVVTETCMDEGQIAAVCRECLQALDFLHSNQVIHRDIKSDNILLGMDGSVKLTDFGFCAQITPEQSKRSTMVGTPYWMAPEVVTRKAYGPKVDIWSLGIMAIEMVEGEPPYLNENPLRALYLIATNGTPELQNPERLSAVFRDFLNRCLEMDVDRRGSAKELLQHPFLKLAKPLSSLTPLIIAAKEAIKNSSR
# UniProt P49761, sequence (whole entry, looked up): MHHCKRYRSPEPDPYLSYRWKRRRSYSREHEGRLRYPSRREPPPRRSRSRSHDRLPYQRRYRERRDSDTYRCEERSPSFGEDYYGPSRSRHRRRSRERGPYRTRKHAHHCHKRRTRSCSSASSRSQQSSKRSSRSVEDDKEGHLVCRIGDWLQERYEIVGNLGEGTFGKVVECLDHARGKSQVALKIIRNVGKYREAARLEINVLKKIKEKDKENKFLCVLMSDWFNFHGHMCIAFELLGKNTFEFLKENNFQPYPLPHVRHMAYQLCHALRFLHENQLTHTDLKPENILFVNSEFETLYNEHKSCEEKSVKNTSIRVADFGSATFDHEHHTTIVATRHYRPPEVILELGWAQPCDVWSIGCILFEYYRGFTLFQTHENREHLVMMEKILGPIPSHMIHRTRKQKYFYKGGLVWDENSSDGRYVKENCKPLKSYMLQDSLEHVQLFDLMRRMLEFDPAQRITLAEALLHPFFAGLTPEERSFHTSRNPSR
# UniProt P50750, sequence (whole entry, looked up): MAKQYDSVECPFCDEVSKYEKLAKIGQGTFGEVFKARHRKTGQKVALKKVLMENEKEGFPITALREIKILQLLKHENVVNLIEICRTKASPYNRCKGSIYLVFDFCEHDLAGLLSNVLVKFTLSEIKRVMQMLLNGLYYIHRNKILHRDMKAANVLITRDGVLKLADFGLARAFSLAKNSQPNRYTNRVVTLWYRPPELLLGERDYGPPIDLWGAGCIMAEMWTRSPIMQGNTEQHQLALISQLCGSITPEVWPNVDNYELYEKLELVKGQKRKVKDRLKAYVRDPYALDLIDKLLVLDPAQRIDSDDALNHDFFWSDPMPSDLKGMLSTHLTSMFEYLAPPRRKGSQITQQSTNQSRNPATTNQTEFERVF

# Series 1
# Cell line: normal organoid sample H
# Technique: CellTiter-Glo
# Host: human
# Matrix: normal-adjacent epithelium
# Concentration: 1 µM
# Relative to: DMSO
Compound,viability
Cn1cnc2c(F)c(Nc3ccc(Br)cc3Cl)c(C(=O)NOCCO)cc21,63.6% and 52.7%
O=C(NC[C@@H]1[C@H]2CN(C(=O)OCc3cc(C(F)(F)F)cc(C(F)(F)F)c3)C[C@@H]12)c1ccc2[nH]nnc2c1,97.7%
Cc1cnc(-c2cc(Cl)ccc2F)cc1-n1c(=O)n(CC(N)=O)c2cnccc21,102% and 104%
Cc1ccc2nc(CNCCCOc3ccccc3)cc(O)c2c1,135% and 165%
Cn1nc(C(=O)NCc2ccc(C(=O)O)cc2)cc1-c1ccc2[nH]ccc2c1,83.7%
O=C(NS(=O)(=O)c1ccc(NCC2CCOCC2)c([N+](=O)[O-])c1)c1ccc(N2CCN(Cc3ccc(C(F)(F)F)cc3-c3ccc(Cl)cc3)CC2)cc1Oc1cnc2[nH]ccc2c1,98.1% and 110%
CO[C@@H](C)c1c(Nc2ccc([C@H](N(C)C(=O)C3CCS(=O)(=O)CC3)C(F)(F)F)cc2)cnc2cc(Cl)nn12,93.1% and 84.8%
C[C@H](c1cccc(C#N)c1)n1cc(Cl)cc(C(N)=O)c1=N,113% and 102%
O=C(O)c1cc(-c2ccc(C3CCNCC3)cc2)c2ccc(-c3ccc(C(F)(F)F)cc3)cc2c1,112% and 102%
CCS(=O)(=O)c1cc2cc(C[C@](O)(CC(C)(C)c3ccc(F)cc3C(N)=O)C(F)(F)F)[nH]c2cn1,93.1%

# Series 2
# Target: Bromodomain-containing protein 4, BD1 (BRD4, Homo sapiens, UniProt O60885)
# Observed: acetyl-histone H4 peptide binding
# Technique: AlphaScreen displacement
# Concentration: 50 µM
Structure (SMILES),inhibition
COc1ccc(CNC(=O)Nc2ncc([N+](=O)[O-])s2)cc1,6.15%
Cc1ccc(-c2csc3nc[nH]c(=O)c23)cc1,10.2%
COc1ccc(Cl)cc1NC(=O)Nc1cc(C)nc2ccccc12,1.95%
COc1ccc(Nc2nc(N)c(C(=O)c3ccc(OC)cc3)s2)cc1,69%
CCN(CC)C(=S)Nc1ccc2nc[nH]c(=O)c2c1,7.15%
CCc1cc(-c2n[nH]c(C)c2-c2ccc3c(c2)OCCO3)c(O)cc1O,65.7%
Nc1nccc(-c2ccc3noc(-c4ccc(Cl)cc4)c3c2)n1,19.9%
Cn1cc(C=C(C#N)c2nc3ccccc3s2)cn1,14.2%
COc1ccc(CCNc2nc(N)nc3[nH]cnc23)cc1OC,54.2%
Brc1ccc(-c2nc(-c3c[nH]c4ccccc34)[nH]c2-c2ccccc2)cc1,82.2%
Br.Br.CCOc1ccc(Nc2nc(-c3c(C)nc4ccccn34)cs2)cc1,85.1%
Cc1ccc(NC2=CC(=O)c3sc(C)nc3C2=O)cc1,81.3%

# Series 3
# SMILES: O=C1NC(=O)C(c2c[nH]c3ccccc23)=C1c1c[nH]c2ccccc12
# Observed: enzyme activity
# Mode: inhibitor
# Concentration: 0.5 µM
# Relative to: control
target,remaining activity [%]
"Serine/threonine-protein kinase PAK 3 (PAK3, Homo sapiens, UniProt O75914)",97.4
"Dual specificity protein kinase CLK4 (CLK4, Homo sapiens, UniProt Q9HAZ1)",76.1
"cGMP-dependent protein kinase 2 (PRKG2, Homo sapiens, UniProt Q13237)",52.6
"Dual specificity protein kinase CLK3 (CLK3, Homo sapiens, UniProt P49761)",102
"Vascular endothelial growth factor receptor 2 (KDR, Homo sapiens, UniProt P35968)",60.8
"Mitogen-activated protein kinase 11 (MAPK11, Homo sapiens, UniProt Q15759)",89
"Serine/threonine-protein kinase Nek3 (NEK3, Homo sapiens, UniProt P51956)",88.2
"Serine/threonine-protein kinase PLK3 (PLK3, Homo sapiens, UniProt Q9H4B4)",99.9
"Serine/threonine-protein kinase DCLK2 (DCLK2, Homo sapiens, UniProt Q8N568)",89.3
"Cyclin-dependent kinase 9, with cyclin K (CDK9, Homo sapiens, UniProt P50750)",80
"Calcium/calmodulin-dependent protein kinase type IV (CAMK4, Homo sapiens, UniProt Q16566)",100
"Serine/threonine-protein kinase MARK2 (MARK2, Homo sapiens, UniProt Q7KZI7)",88.9
"MAP/microtubule affinity-regulating kinase 4 (MARK4, Homo sapiens, UniProt Q96L34)",95.3

# Series 4
# SMILES: O=C(Nc1ccccc1)Nc1cccc(Oc2ccc3nccn3n2)c1
# Concentration: 1 µM
target,test,conditions,how to read,remaining binding [%]
"Mitogen-activated protein kinase kinase kinase 10 (MAP3K10, Homo sapiens, UniProt Q02779)","competitive binding panel, measured: MLK2",,relative to: vehicle,91
"Mitogen-activated protein kinase 11 (MAPK11, Homo sapiens, UniProt Q15759)",competitive binding,p38-beta,,100
"Serine/threonine-protein kinase 24 (STK24, Homo sapiens, UniProt Q9Y6E0)","competitive binding panel, measured: MST3",,relative to: vehicle,97
"Mitogen-activated protein kinase kinase kinase kinase 1 (MAP4K1, Homo sapiens, UniProt Q92918)","competitive binding panel, measured: HPK1",,relative to: vehicle,67
"Epidermal growth factor receptor (EGFR, Homo sapiens, UniProt P00533)",competitive binding panel,,relative to: vehicle,67
"Phosphatidylinositol 4,5-bisphosphate 3-kinase catalytic subunit alpha isoform (PIK3CA, Homo sapiens, UniProt P42336, E542K)",competitive binding panel,,relative to: vehicle,99
"G protein-coupled receptor kinase 4 (GRK4, Homo sapiens, UniProt P32298)",competitive binding panel,,relative to: vehicle,77
"Serine/threonine-protein kinase Nek4 (NEK4, Homo sapiens, UniProt P51957)",competitive binding panel,,relative to: vehicle,100
"NT-3 growth factor receptor (NTRK3, Homo sapiens, UniProt Q16288)",competitive binding,TRKC,,73
"Serine/threonine-protein kinase TBK1 (TBK1, Homo sapiens, UniProt Q9UHD2)",competitive binding panel,,relative to: vehicle,90
"Phosphorylase b kinase gamma catalytic chain, liver/testis isoform (PHKG2, Homo sapiens, UniProt P15735)",competitive binding panel,,relative to: vehicle,91
"Serine/threonine-protein kinase ULK1 (ULK1, Homo sapiens, UniProt O75385)",competitive binding panel,,relative to: vehicle,100
"Phosphatidylinositol 4,5-bisphosphate 3-kinase catalytic subunit alpha isoform (PIK3CA, Homo sapiens, UniProt P42336, M1043I)",competitive binding panel,,relative to: vehicle,100

# Excerpt of the above (series 2):
Structure (SMILES),inhibition
COc1ccc(Cl)cc1NC(=O)Nc1cc(C)nc2ccccc12,1.95%
Cc1ccc(NC2=CC(=O)c3sc(C)nc3C2=O)cc1,81.3%
CCc1cc(-c2n[nH]c(C)c2-c2ccc3c(c2)OCCO3)c(O)cc1O,65.7%
COc1ccc(CCNc2nc(N)nc3[nH]cnc23)cc1OC,54.2%
Br.Br.CCOc1ccc(Nc2nc(-c3c(C)nc4ccccn34)cs2)cc1,85.1%
Nc1nccc(-c2ccc3noc(-c4ccc(Cl)cc4)c3c2)n1,19.9%
